Measured values pooled from the literature.
Protocols differ between the studies behind these lines.
Target: Amine oxidase [flavin-containing] A (MAOA, Homo sapiens, UniProt P21397)
UniProt P21397, sequence (whole entry, looked up): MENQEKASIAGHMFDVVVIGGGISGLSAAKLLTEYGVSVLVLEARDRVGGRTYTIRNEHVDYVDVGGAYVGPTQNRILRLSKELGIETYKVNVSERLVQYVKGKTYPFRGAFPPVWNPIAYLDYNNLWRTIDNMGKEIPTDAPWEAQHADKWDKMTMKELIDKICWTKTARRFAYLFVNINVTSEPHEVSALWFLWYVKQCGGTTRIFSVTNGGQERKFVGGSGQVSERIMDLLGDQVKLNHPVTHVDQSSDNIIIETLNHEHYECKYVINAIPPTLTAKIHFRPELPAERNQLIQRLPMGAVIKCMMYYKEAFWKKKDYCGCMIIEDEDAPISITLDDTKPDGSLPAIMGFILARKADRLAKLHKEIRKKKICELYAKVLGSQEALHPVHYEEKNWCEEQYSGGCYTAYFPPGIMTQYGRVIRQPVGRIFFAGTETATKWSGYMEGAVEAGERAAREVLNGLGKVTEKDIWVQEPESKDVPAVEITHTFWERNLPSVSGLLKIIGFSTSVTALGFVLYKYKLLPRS
Observed: enzyme activity
Action: inhibitor

Compound | method | notes | IC50 [µM]
N#Cc1ccc(C2=Nn3c(nnc3-c3ccc(-n4nc(-c5ccccc5O)nc4-c4ccccc4O)cc3)SC2)cc1 | fluorescence | – | 55.9
O=C(/C=C/c1cccc(Cl)c1)c1cc2ccccc2oc1=O | – | – | > 40
CNC(=S)N/N=C/c1ccc(OCc2cccc(F)c2)cc1 | absorbance | – | > 40
O=c1ccoc2ccc(OCCCN3CCOCC3)cc12 | fluorescence | – | 1.7
Fc1cccc(COc2ccc(/C=N/NC(=S)Nc3ccccc3)cc2)c1 | absorbance | – | > 40
O=C1c2cc(F)ccc2NC12CCCC2 | – | – | 30.7
NC(=S)N/N=C/c1ccc(OCc2cccc(F)c2)cc1 | absorbance | – | 9.76
O=C(/C=C/c1ccc(Cl)cc1)c1ccc(N2CCNCC2)cc1 | – | with preincubation | > 40
CCS(=O)(=O)N1CCN(CC(=O)Nc2ccc(/C=C/C(=O)c3ccc(OC)c(OC)c3)cc2)CC1 | fluorescence | – | > 1000
NC(=S)N/N=C/c1cccc(OCc2ccccc2)c1 | absorbance | – | 2.32
Nn1c(-c2ccc(-n3nc(-c4ccccc4O)nc3-c3ccccc3O)cc2)n[nH]c1=S | fluorescence | – | 19
CC(=O)C1=C(C)NC(SCCCSc2nnc(Cc3ccccc3Nc3c(Cl)cccc3Cl)n2-c2ccc(Cl)c(Cl)c2)=NC1c1ccc(C)cc1 (centres unmarked) | fluorescence | – | 2.39
NC(=S)N/N=C/c1ccc(OCc2ccccc2)cc1 | absorbance | – | > 40
COC(=O)c1ccc(-n2nc(-c3ccccc3O)nc2-c2ccccc2O)cc1 | fluorescence | – | 33.6
NC(=O)N/N=C/c1ccc(OCc2ccccc2)cc1 | absorbance | – | > 40
O=C(/C=C/c1cccc(Br)c1)c1cc2ccccc2oc1=O | – | – | > 40

Compound | method | notes | IC50 [µM]
O=C1c2cc(F)ccc2N(Cc2ccccc2)C12CCCC2 | – | – | 31.1
CNC(=S)N/N=C/c1cccc(OCc2ccccc2)c1 | absorbance | – | 4.53
O=C1c2cc(Cl)ccc2N(Cc2ccccc2)C12CCCC2 | – | – | 19.2
C#CCCCOc1ccc(C2CC2N)cc1 (centres unmarked) | – | – | 0.5
Cc1ccc(/C=C/C(=O)c2ccc(N3CCNCC3)cc2)cc1 | – | with preincubation | 29.4
CSc1ccc(C2=Nn3c(nnc3-c3ccc(-n4nc(-c5ccccc5O)nc4-c4ccccc4O)cc3)SC2)cc1 | fluorescence | – | 1.52
CCc1ccc(/C=C/C(=O)c2ccc(N3CCNCC3)cc2)cc1 | – | with preincubation | 35.6
CC(=O)C1=C(C)NC(SCCCSc2nnc(Cc3ccccc3Nc3c(Cl)cccc3Cl)n2-c2ccc(Cl)c(Cl)c2)=NC1c1ccc([N+](=O)[O-])cc1 (centres unmarked) | fluorescence | – | 1.26
O=[N+]([O-])c1cccc(C2=Nn3c(nnc3-c3ccc(-n4nc(-c5ccccc5O)nc4-c4ccccc4O)cc3)SC2)c1 | fluorescence | – | 6.67
NC(=O)N/N=C/c1cccc(OCc2ccccc2)c1 | absorbance | – | 32.9
O=C1c2ccccc2N(Cc2cccc(Cl)c2)C12CCCC2 | – | – | 8.95
O=C(/C=C/c1ccccc1Br)c1cc2ccccc2oc1=O | – | – | > 40
O=C(/C=C/c1ccccc1)c1ccc(N2CCNCC2)cc1 | – | with preincubation | > 40
O=C1c2ccccc2N(Cc2ccccc2)C12CCCC2 | – | – | > 40
O=C(/C=C/c1ccc(F)cc1)c1cc2ccccc2oc1=O | – | – | > 40
COc1ccc(/C=C/C(=O)c2ccc(N3CCNCC3)cc2)cc1 | – | with preincubation | 27.9

Some of these lines once more:
Compound | method | notes | IC50 [µM]
O=C1c2cc(F)ccc2NC12CCCC2 | – | – | 30.7
NC(=S)N/N=C/c1ccc(OCc2cccc(F)c2)cc1 | absorbance | – | 9.76
O=C(/C=C/c1ccc(Cl)cc1)c1ccc(N2CCNCC2)cc1 | – | with preincubation | > 40
CCS(=O)(=O)N1CCN(CC(=O)Nc2ccc(/C=C/C(=O)c3ccc(OC)c(OC)c3)cc2)CC1 | fluorescence | – | > 1000
